Assay results pooled from the literature.
A part holds a random share of what one study measured.

Sample 1 — method: EMSA with sequencing; molecule type: double-stranded DNA, one strand shown; sample: in vitro; tested at: 10 and 20 nM; baseline: negative control set to 0; direction: higher = stronger binding
Target: Hepatocyte nuclear factor 3-alpha (Foxa1, Mus musculus, UniProt P35582, residues 1-468, full length assumed)
Setting: whole designed probe, mean of two concentrations, ends assumed
All sequences stand within: GTGAGCGGTGCCCATTGATGGGGAAC … TTTCACTGGGATCGTGGGGAC
Residues (chain): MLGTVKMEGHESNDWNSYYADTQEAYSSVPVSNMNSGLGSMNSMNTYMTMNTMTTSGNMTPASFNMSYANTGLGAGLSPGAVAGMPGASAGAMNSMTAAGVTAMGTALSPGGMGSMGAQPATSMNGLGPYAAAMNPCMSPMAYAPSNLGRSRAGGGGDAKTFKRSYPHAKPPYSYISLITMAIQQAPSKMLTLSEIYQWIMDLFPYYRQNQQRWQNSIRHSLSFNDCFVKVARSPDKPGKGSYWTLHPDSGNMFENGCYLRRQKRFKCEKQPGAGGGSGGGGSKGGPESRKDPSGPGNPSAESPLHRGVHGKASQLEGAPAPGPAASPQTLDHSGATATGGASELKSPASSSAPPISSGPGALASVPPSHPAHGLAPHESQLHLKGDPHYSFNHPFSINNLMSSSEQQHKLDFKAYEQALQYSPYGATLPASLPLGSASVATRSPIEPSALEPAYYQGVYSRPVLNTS
Oligonucleotide | normalised bound fraction
CAGCCTGCAGTGCGCTCAGTTAAACAATTCCAAATCAAGGAATTTTGTCTGATACAAGGAATTTGGGGTGTGTTTTCCTAACATGCACCCTGGGTAATTTGACTGGGGGGGGGGGCCATTTCCTGACCCAGCTGAAGCCAATATGCATTGCGGCCACAAGGTGGCGCGTCTGGGCCTGGCAAACCCCTGTGCT | 0.0357 ratio
GTGAGCCACTGCGCCCAGCCCATAAATCCTTTTATAAGCTTAAAAAAAATTTCTTTTTTCTCTCCTGTATATTACTATGTTTTATATTTTAAGTAAACAAGAATATACCTATGAATACTGTACTCAATTTAAAGTAATCTACCATCAATTGCATTACTTCCAAATTAAATTTAAATGTCAGTTTAATTAATGA | 0.406 ratio
CATTTTATTTTACAAAAGGAAATGAAATCTCATAGAGACTCAGGGGTACACTTTGTGTGGTTAATGTTCTTCTCACTTCCCTACACATTTTCCATATTTACATAGATGATTTTATTACAAAATATTATGCAAAATGAGAAATGTCCTTTAAGTGTTTTAATAAACTTTATCAGTGTTTTTTTATTATATCAAT | 0.249 ratio
AGGTAAACCGAATCTGTTTTCTTCTACTCCCAAGATGGAAGAGGAAAAGGGAAAAAAAAGTGGAGAACATGCTTATGAAATCCTCAACTCCCCTTGTTTACTCTGTAAATAGCACAATATGTTTAGATTTTTCCACATCTAGAGGATTTCAAAATCTACCTGGGAGGGAGGGCTGGGGCATCAACTGGTATGC | 0.264 ratio
CTGAGGCGCTGCAGGCCCGGCTTCTGGCTGCGGGGGAGCTGTACCCTGAAGCCTCGCCGGAACTCGCGTCTGGGGCCAGCAGGGGGCACTAGAGTCAACAGGGACTGTATGCAAAACCCACTTCCTCCCAGGCCCTCTAGGGGGATGGTCAGGCTTCTGCAGAGATGGGGAGGATCCTTTCCTGGTAAGGGGA | 0.013 ratio

Sample 2 — method: RNA Bind-n-Seq; molecule type: RNA; sample: in vitro; tested at: not given; baseline: input RNA pool; direction: higher = stronger binding
Target: RING finger protein unkempt homolog, zinc fingers 1-6, GST-SBP tag (UNK, Homo sapiens, UniProt Q9C0B0, residues 30-357)
Setting: RNA with constant flanks, human and mouse sites, ends assumed
All sequences stand within: GGGAGUUCUACAGUCCGACGAUC … CAACAGAGGAUUGAGCAUCA
Construct (chain): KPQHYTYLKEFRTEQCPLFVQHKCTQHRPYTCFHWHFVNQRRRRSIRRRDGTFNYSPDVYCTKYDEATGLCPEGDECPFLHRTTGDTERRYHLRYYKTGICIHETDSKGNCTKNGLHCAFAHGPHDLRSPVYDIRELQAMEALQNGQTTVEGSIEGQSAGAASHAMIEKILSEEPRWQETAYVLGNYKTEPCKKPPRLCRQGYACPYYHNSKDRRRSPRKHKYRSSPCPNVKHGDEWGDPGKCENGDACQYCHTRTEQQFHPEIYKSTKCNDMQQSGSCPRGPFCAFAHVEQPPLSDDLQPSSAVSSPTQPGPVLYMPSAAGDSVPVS
Oligonucleotide | bound/input enrichment
CAGGGCUACCCUCUGAUGGGGUCCCCCUUGCUAAUGACCUCCAUUCUCCUGACCUACGUGUACUUCGUUCUCUCACUUGGGCCUCGCAUCAUGGCUAAUCGGAAGCCCUUCCAGCUCCGU | 0.0887 ratio
ACUUCAUCUUCCUCCUCUGAAGAUGAACAGCACUUUGAGAGGCGGAGGAAAAGGAGUCGUAAUAGGGCUAUCAAUAGGUGCCUCCCACUAAAUUUUCGGAAAGAUGAAUUAAAAGGCAUU | 0.17 ratio
CCAGCGGGCGCAGCCGCGGCGGCGCGGGCCUCCCUAGCUGACACUCCCCCUGCGCGCCCCUCCCCCGCCGCGGCGGAAUCCCGCCCGCCCUCCGGUCCGCGCGCGAGCCCGAGGCCGCUU | 1.32 ratio
UUUGUUGCUGCUGUGUUUAGAUAAUUGAAGAGAUCUUUGUGCCACACAGGAUUUUUUUUUUUUUUUAAGAAAAACCUAUAGAUGAAAAAUUACUAAUGAAACUGUGUGUACGUGUCUGUG | 12.5 ratio
ACAUUCACUGGGAUCUAUACCUUUGAGUCACUUAUAAAGAUCUUGGCCAGAGGAUUCUGCUUAGAAGAUUUCACAUUUCUUCGUGACCCAUGGAACUGGCUGGAUUUCAGUGUCAUCGUG | 0.159 ratio
AUUCAGGCACAACUGACUGGUUCACAGCAUCCCUUACAUAGCUACCUAUCAAGUGCAAGUAUUGGUAAUUUUCAGGAACCAUCCAGGCAGUCGUCUUUAUCCUGUAGUUCAGUUCGAGAU | 0.205 ratio
UCUGAGGAAAGGAGACCCUCUCCCAAGGAGUCCAAGGAGGCAGAUGUGGCCACAGUCCGUUUAGGGGAAAAAAGGAGUCACCAUCUAGCUCACUACAGGGCUUCAGAAGAAGAACCUGAA | 0.571 ratio
GCCCCCCUUGAGGUUUUCCGGCGAUUUGUGUGGAACUUCUUCCGUCUGGAGAACGAGCAUCUAAAUAACUGUGGUGAAUUCCGAGCCGUGCGGGACAUCUCUGUGGCCCCCCUCAACGCG | 0.337 ratio

Sample 3 — method: aptamer microarray, sandwich; molecule type: DNA with 2'F-ANA; sample: in vitro; tested at: 200 nM; together with: Cy3 exosite-II aptamer, 400 nM; direction: higher = stronger binding; oligonucleotide: GGTTGGTGTGGTTGG
Target: Prothrombin, mature alpha-thrombin (F2, Homo sapiens, UniProt P00734)
Setting: whole 15-mer aptamer, many near background
Modification | mean fluorescence intensity [a.u.]
2'F-ANA at 4 6 7 8 10 11 12 14 | 60.3
2'F-ANA at 2 4 5 6 7 10 15 | 46.9
2'F-ANA at 1 3 7 9 12 13 14 15 | 110
2'F-ANA at 5 7 8 9 10 11 | 61.7
2'F-ANA at 2 4 7 10 11 12 15 | 119
2'F-ANA at 2 3 5 6 7 8 9 15 | 101
2'F-ANA at 1 2 3 4 8 9 15 | 190
2'F-ANA at 1 2 5 7 8 9 13 | 52
2'F-ANA at 2 5 10 11 12 13 14 15 | 57.4
2'F-ANA at 1 3 5 6 8 9 10 13 15 | 74.7
2'F-ANA at 2 3 4 5 7 11 12 13 14 15 | 52.2
2'F-ANA at 1 2 4 10 11 13 | 58.8
2'F-ANA at 1 3 4 5 10 11 12 15 | 87.8
2'F-ANA at 3 6 9 10 12 | 534
2'F-ANA at 1 2 10 13 | 48.2
2'F-ANA at 2 4 5 7 8 9 10 11 12 13 14 15 | 49.2
2'F-ANA at 2 3 4 5 7 8 10 11 13 14 | 48.5
2'F-ANA at 2 3 4 5 7 8 9 13 14 15 | 66

Sample 4 — method: protein binding microarray; molecule type: double-stranded DNA, one strand shown; sample: in vitro; tested at: not given; baseline: not given; direction: higher = stronger binding
Target: Histone acetyltransferase KAT6A, winged helix 1, GST fusion (KAT6A, Homo sapiens, UniProt Q92794, residues 1-85)
Setting: 8-mer, flanks averaged, mean of 2 arrays, mostly near background
Construct (chain): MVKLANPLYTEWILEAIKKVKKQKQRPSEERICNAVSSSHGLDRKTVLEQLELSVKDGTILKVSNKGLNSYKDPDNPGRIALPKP
Oligonucleotide | E-score
ACAGCGCG | 0.41
CTTGGGCC | 0.0227
GGTATATA | -0.0494
GAGATATA | -0.00042
AAGACGGA | 0.0652
GTCTATGA | -0.0934
CTTTCTAC | -0.0936
GACTTAGA | -0.3
AGGTTGTA | -0.00244
AGGCAACT | -0.133
CGGACGCA | 0.29
ACCGACAT | 0.0481
AGATGTAG | -0.0755
ATCGGCTC | 0.0805
GACAACCA | -0.128
GGAAGGAA | -0.109
ACATACAA | -0.0107
GCGGCGAC | 0.437
CCCCAACG | -0.136
AGTATAAG | -0.0423
CCACGGTC | 0.0871
CAGTGTGG | -0.124
CGTGACCA | -0.0023

Some of these lines once more (sample 4):
Oligonucleotide | E-score
GAGATATA | -0.00042
AAGACGGA | 0.0652
GTCTATGA | -0.0934
CTTTCTAC | -0.0936
GACTTAGA | -0.3
AGGTTGTA | -0.00244
